Experimental data pooled from the literature.
Parts stem from different laboratories: compare values within a part only. Substitutions count along the parent as printed.

Series 1
Target: Sal-like protein 4, full length isoform B (SALL4, Homo sapiens, UniProt Q9UJQ4-2, residues 1-616)
Technique: universal PBM
Form: double-stranded DNA, one strand shown
Medium: in vitro
Concentration: not given
Notes: 8-mer, flanks averaged, mean of replicates
Reading: higher = stronger binding
Endpoint: E-score
Construct (chain): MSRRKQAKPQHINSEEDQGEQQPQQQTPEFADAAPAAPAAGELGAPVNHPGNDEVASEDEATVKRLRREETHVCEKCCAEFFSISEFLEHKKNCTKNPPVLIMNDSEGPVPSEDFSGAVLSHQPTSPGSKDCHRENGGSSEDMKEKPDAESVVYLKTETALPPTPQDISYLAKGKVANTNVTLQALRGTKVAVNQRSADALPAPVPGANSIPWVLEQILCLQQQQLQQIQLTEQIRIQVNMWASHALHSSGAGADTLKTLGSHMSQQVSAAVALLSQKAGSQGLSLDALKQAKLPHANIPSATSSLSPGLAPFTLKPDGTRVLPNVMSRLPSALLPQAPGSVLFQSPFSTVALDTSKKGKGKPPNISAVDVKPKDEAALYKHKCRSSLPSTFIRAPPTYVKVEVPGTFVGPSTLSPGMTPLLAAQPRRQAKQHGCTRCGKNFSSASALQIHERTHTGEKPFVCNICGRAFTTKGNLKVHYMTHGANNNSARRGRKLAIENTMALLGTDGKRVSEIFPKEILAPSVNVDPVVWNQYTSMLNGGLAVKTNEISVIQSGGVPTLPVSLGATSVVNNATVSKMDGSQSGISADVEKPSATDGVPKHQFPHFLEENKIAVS
Oligonucleotide = CATAGAGA; value = 0.152
Oligonucleotide = CATGAGGG; value = -0.0622
Oligonucleotide = CTAAGCAA; value = -0.186
Oligonucleotide = TATGGACA; value = 0.22
Oligonucleotide = CCAGTGCA; value = -0.199
Oligonucleotide = AAGGCTAG; value = 0.125
Oligonucleotide = GGTGAAAA; value = 0.0211

Series 2
Target: CCNA2, cyclin fold, Cln2 fusion (human)
Technique: yeast growth competition, sequencing
Medium: yeast
Notes: weak parent motif
Reference: not given
Reading: higher = stronger binding
Endpoint: normalised enrichment score
Starting sequence: SLBP docking peptide (human); ARYKRKLLINDFG
Substitution = ARYKRKLLINRFG [D11R]; value = 1.88
Substitution = ARYKRMLLINDFG [K6M]; value = 1.12
Substitution = ARYKRKLYINDFG [L8Y]; value = 0.963
Substitution = ARYKRKLLINDFK [G13K]; value = 1.55
Substitution = ARIKRKLLINDFG [Y3I]; value = 1.43
Substitution = ARYKRKLLIDDFG [N10D]; value = 1.09
Substitution = ARYKRKLLINDQG [F12Q]; value = 0.794
Substitution = ARYKRKLLINDFF [G13F]; value = 1.4

Series 3
Target: Interferon regulatory factor 5, full length, phosphomimetic (IRF5, Homo sapiens, UniProt Q13568-2, residues 1-514, K96S/S451D/S453D/S456D/S462D)
Technique: protein-binding microarray
Form: double-stranded DNA, one strand shown
Medium: in vitro
Concentration: 250 nM
Notes: 60-bp whole probe
Together with: salmon DNA 0.4 mg/ml
Reference: random background probes
Reading: higher = stronger binding
Endpoint: log fluorescence
Oligonucleotide = GCCTAGCACTTAGGTCTCATTTTCCTTTAGTGCTAGGTCTTGATTCGCTTGACGCTGCTG; value = 0.832 z-score
Oligonucleotide = GCCTAGCACTTAGAACTGGGGGCTGGATTAGTGCTAGTCTTGATTCGCTTGACGCTGCTG; value = 0.706 z-score
Oligonucleotide = GCCTAGCACGTAGGTATCGGGTTTCGGTTAGTGCTAGTCTTGATTCGCTTGACGCTGCTG; value = 8.17 z-score
Oligonucleotide = GCCTAGCACGACGGTTTCGGTTACGGGACGTGCTAGGTCTTGATTCGCTTGACGCTGCTG; value = 9.4 z-score

Other studies, line by line
Substance = PhoQ, residues 284 288 289 292 302 303 QWQEDG; target = PhoP, residues 12 14 15 18 19 NFCKL (Escherichia coli, UniProt P23836); assay = Sort-seq, item: YFP reporter; system = E. coli; setting = PhoQ-PhoP variant library, together with: 10 µM Mg2+; scale = reference: high Mg2+ state, higher = stronger signaling; endpoint = fold induction; value = 1.51

A few entries again (series 2):
Substitution = ARYKRKLLINDQG [F12Q]; value = 0.794
Substitution = ARYKRMLLINDFG [K6M]; value = 1.12
